{"data": "Assay results pooled from the literature", "PPARA ligand-binding domain": "Peroxisome proliferator-activated receptor alpha, ligand-binding domain (PPARA, Homo sapiens, UniProt Q07869)", "GBA2": "Beta-glucosidase (GBA2, Homo sapiens, UniProt Q9HCG7)", "Chymotrypsinogen A": "Chymotrypsinogen A (Bos taurus, UniProt P00766)", "Sensor histidine kinase AirS": "Sensor histidine kinase AirS (Staphylococcus aureus, UniProt Q2FX96)", "SIRT2": "NAD-dependent protein deacetylase sirtuin-2 (SIRT2, Homo sapiens, UniProt Q8IXJ6)", "CHEK1": "Serine/threonine-protein kinase Chk1 (CHEK1, Homo sapiens, UniProt O14757)", "sequence of UniProt Q9HCG7 (whole entry, looked up)": "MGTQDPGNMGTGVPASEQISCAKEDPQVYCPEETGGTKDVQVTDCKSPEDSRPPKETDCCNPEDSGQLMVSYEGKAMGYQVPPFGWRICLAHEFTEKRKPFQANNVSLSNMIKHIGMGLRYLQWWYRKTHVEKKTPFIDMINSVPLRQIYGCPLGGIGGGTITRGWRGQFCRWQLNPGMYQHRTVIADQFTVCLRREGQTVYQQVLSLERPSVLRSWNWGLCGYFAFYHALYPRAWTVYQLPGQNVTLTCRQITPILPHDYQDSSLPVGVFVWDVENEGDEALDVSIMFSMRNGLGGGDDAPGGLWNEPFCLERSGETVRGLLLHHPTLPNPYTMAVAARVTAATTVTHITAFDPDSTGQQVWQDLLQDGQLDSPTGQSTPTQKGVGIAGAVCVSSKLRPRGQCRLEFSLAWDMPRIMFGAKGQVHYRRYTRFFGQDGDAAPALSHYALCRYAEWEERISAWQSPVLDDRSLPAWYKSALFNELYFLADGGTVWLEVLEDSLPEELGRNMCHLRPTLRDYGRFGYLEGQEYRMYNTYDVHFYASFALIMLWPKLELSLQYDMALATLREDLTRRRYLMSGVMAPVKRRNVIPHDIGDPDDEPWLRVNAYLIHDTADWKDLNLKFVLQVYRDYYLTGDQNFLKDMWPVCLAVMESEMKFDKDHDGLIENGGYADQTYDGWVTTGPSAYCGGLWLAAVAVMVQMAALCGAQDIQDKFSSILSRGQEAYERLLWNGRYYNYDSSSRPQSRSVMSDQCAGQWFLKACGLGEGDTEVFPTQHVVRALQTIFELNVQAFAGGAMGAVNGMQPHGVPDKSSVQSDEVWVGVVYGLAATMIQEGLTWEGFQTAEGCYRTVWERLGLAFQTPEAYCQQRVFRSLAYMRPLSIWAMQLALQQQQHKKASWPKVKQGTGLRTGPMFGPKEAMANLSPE", "sequence of UniProt Q07869 (whole entry, looked up)": "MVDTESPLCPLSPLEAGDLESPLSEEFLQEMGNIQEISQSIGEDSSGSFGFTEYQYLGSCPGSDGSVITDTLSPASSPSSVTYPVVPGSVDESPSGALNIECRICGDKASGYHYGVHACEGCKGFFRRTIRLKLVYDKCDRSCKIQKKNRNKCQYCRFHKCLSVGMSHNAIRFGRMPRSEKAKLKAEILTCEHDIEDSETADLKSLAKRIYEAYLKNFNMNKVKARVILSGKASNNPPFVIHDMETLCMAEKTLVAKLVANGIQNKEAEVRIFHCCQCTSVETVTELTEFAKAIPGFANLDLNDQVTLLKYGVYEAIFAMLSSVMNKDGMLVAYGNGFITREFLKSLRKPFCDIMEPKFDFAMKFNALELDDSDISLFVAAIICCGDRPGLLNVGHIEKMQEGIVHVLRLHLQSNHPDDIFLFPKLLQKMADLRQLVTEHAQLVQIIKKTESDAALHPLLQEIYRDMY", "sequence of UniProt O14757 (whole entry, looked up)": "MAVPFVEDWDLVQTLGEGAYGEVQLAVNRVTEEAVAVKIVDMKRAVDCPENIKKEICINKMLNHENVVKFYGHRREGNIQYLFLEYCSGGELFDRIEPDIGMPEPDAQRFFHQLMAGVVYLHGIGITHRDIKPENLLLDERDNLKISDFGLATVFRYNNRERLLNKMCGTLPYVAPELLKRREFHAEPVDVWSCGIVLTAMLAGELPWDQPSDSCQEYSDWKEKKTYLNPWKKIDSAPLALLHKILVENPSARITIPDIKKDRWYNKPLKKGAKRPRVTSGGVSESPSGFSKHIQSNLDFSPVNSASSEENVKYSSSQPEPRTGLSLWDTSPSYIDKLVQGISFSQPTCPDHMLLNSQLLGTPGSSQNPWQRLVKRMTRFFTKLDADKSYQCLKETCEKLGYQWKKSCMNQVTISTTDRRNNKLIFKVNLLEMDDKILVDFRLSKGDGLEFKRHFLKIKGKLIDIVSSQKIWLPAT", "sequence of UniProt Q8IXJ6 (whole entry, looked up)": "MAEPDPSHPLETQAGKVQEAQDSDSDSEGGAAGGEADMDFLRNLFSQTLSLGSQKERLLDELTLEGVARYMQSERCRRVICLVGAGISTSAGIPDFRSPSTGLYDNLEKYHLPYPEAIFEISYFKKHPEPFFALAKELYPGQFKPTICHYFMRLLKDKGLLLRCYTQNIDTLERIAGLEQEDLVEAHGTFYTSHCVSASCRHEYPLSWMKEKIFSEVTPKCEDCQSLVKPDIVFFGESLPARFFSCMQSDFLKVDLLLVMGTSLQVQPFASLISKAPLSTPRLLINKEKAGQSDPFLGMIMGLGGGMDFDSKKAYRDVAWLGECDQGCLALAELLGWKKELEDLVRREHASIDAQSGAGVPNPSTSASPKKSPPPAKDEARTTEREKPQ", "sequence of UniProt O60674 (whole entry, looked up)": "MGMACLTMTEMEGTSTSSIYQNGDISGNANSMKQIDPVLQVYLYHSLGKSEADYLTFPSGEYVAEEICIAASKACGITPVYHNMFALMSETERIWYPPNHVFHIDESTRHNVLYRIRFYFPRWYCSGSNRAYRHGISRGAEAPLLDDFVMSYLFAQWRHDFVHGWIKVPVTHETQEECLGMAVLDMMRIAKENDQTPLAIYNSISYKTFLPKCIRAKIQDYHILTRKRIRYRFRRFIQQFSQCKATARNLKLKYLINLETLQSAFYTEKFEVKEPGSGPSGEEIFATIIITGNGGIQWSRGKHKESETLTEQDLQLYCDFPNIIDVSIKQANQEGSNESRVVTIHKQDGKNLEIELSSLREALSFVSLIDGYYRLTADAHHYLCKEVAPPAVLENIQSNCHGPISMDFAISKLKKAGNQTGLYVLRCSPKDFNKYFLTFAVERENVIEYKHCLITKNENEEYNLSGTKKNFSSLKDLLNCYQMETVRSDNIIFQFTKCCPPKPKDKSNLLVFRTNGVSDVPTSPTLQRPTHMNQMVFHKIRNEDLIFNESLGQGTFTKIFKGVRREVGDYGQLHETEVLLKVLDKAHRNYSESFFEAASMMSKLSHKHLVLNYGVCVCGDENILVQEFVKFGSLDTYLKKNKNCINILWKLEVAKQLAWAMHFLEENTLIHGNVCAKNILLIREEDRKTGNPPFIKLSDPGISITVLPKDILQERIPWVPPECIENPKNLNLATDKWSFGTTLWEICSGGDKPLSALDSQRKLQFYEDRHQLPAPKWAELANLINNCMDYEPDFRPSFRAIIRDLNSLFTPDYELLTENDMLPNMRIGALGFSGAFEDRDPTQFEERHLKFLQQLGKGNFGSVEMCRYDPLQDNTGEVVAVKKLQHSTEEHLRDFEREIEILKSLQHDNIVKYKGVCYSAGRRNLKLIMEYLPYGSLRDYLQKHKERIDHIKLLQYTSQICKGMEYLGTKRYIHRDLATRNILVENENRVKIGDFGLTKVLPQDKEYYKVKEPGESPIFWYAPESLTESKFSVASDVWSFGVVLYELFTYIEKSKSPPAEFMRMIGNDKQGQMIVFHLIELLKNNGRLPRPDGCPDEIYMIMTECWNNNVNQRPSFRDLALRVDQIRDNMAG", "sequence of UniProt Q9NSU2 (whole entry, looked up)": "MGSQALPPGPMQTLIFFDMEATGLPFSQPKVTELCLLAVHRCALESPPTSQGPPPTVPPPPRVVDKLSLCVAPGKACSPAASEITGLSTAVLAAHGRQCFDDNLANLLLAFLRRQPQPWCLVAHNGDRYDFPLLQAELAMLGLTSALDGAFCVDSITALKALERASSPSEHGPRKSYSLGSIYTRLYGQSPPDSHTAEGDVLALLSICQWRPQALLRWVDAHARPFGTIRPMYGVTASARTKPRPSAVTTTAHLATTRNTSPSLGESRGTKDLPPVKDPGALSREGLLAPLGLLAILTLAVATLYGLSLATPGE", "sequence of UniProt Q02750 (whole entry, looked up)": "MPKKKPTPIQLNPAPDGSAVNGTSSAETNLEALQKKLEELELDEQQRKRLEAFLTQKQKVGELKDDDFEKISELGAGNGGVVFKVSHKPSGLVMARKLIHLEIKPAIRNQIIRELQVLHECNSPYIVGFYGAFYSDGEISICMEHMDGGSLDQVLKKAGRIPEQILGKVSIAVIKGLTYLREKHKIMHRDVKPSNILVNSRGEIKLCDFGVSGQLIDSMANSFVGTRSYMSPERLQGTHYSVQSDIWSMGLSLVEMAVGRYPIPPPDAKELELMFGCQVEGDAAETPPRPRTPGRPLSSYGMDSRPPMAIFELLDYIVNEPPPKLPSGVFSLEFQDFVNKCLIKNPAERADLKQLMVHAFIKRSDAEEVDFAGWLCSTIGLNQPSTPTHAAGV", "sequence of UniProt Q15109 (whole entry, looked up)": "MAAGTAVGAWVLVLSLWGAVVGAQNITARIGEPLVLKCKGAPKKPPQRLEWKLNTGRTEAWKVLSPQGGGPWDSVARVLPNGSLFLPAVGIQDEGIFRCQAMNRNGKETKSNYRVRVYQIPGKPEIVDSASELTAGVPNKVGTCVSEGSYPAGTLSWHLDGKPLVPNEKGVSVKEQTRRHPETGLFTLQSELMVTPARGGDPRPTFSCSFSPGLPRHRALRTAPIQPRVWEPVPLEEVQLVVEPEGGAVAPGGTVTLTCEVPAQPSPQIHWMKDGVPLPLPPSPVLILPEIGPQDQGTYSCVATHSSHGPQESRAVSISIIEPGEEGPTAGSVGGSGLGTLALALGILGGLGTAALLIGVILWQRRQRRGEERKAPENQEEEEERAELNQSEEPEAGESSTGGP", "sequence of UniProt P22760 (whole entry, looked up)": "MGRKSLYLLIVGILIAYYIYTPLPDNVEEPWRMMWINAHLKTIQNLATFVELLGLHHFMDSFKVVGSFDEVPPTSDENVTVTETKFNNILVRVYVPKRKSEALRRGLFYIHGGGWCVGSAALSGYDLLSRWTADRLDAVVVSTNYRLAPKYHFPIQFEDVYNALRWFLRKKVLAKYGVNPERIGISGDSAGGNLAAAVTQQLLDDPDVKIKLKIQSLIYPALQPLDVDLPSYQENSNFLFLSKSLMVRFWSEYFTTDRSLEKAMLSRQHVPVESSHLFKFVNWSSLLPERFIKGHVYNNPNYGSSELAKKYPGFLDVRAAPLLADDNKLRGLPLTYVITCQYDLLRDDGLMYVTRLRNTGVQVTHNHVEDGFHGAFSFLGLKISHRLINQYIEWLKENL", "sequence of UniProt P10997 (whole entry, looked up)": "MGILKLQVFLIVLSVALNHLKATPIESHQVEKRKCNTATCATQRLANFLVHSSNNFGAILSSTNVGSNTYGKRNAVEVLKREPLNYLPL"}
{"SMILES": "Cc1c(COc2cc(OCc3cccc(C#N)c3)c(CNCCO)cc2Cl)cccc1-c1cccc(OCCCCCCC(=O)NO)c1", "target": "HDAC2 (Homo sapiens, UniProt Q92769)", "assay": "enzyme activity, inhibitor", "IC50 [µM]": 0.0574}
{"SMILES": "Cc1c(Cc2ccc(OC(C)(C)C(=O)O)cc2)c2ccc(C(=O)N[C@@H](C)c3cccc(C(C)(C)C)c3)cc2n1C", "target": "PPARA ligand-binding domain", "assay": "reporter gene, luciferase reporter", "system": "HEK293T, Gal4-PPARα LBD", "IC50 [µM]": 1.23}
{"SMILES": "CC(C)CCC[C@@H](C)[C@H]1CC[C@H]2[C@@H]3CC=C4C[C@@H](OCCCCCN5C[C@H](O)[C@@H](O)[C@H](O)[C@@H]5CO)CC[C@]4(C)[C@H]3CC[C@]12C", "target": "GBA2", "assay": "inhibitor, 4MU-β-D-glucopyranoside", "system": "HEK293T homogenates overexpressing GBA2", "IC50 [µM]": 0.02}
{"SMILES": "O=C(O)c1ccc(Oc2ccc(Cl)cc2NS(=O)(=O)c2ccc(Cl)c(Cl)c2)cc1", "target": "CCR1 (Homo sapiens, UniProt P32246)", "assay": "antagonist", "system": "U2OS membranes", "conditions": "25 °C, added: 20 nM CCL3", "IC50 [µM]": 3.69}
{"SMILES": "O=C(NCC1CC1)c1ccccc1NC(=O)C(C(F)(F)F)C(F)(F)F", "target": "Chymotrypsinogen A", "assay": "enzyme activity, inhibitor, fluorescence", "IC50 [µM]": 162}
{"SMILES": "Cc1cc(NC2CCN(C)CC2)ccc1-c1cc2c(N3CCC[C@H](C(=O)NCc4ccc(OC(F)(F)F)cc4)C3)ncnc2[nH]1", "target": "MAP2K1 (Homo sapiens, UniProt Q02750)", "assay": "enzyme activity, inhibitor, mobility shift", "IC50 [µM]": "> 8"}
{"SMILES": "Cc1c(Cc2ccc(OC(C)(C)C(=O)O)cc2)c2ccc(C(=O)N[C@@H](C)c3cccc(C(C)C)c3)cc2n1C", "target": "PPARA ligand-binding domain", "assay": "reporter gene, luciferase reporter", "system": "HEK293T, Gal4-PPARα LBD", "IC50 [µM]": 0.63}
{"SMILES": "COc1ccc(N(C)C2=C(c3ccccc3)C(=O)NC2=O)cc1", "target": "Sensor histidine kinase AirS", "assay": "autophosphorylation, inhibitor, BODIPY-FL-ATPγS in-gel fluorescence", "conditions": "lower bound of confidence interval", "IC50 [µM]": "> 41"}
{"SMILES": "CCCCCCOCCCCCN1C[C@H](O)[C@@H](O)[C@H](O)[C@@H]1CO", "target": "GBA2", "assay": "inhibitor, 4MU-β-D-glucopyranoside", "system": "HEK293T homogenates overexpressing GBA2", "IC50 [µM]": 0.025}
{"SMILES": "Cc1c(Cc2cccc(OC(C)(C)C(=O)O)c2)c2ccc(C(=O)N[C@@H](C)c3ccc(C(C)C)cc3)cc2n1C", "target": "PPARA ligand-binding domain", "assay": "reporter gene, luciferase reporter", "system": "HEK293T, Gal4-PPARα LBD", "IC50 [µM]": 9.49}
{"SMILES": "O=C1/C(=N\\c2ccc(Cl)cc2)c2ccccc2N1Cc1ccccc1", "target": "PIK3CG (Homo sapiens, UniProt P48736)", "assay": "enzyme activity, inhibitor, ADP detection", "IC50 [µM]": 0.00136}
{"SMILES": "O=C(CCCCCN1C[C@H](O)[C@@H](O)[C@H](O)[C@H]1CO)NC12CC3CC(CC(C3)C1)C2", "target": "GBA2", "assay": "inhibitor, 4MU-β-D-glucopyranoside", "system": "HEK293T homogenates overexpressing GBA2", "IC50 [µM]": 0.009}
{"SMILES": "Cc1nn(-c2cccc(N)c2)c(=O)c2cnc(Nc3ccc(N4CCNCC4)cc3)nc12", "target": "PRKD1 (Homo sapiens, UniProt Q15139)", "assay": "enzyme activity, inhibitor", "IC50 [µM]": 2.63}
{"SMILES": "C#CCNC(=O)c1ccc(S(=O)(=O)N[C@@H](CCCCNC(=S)NC)C(=O)N[C@@H](CCCNC(=N)N)C(=O)N[C@@H](CC2CCCCC2)C(N)=O)cc1", "target": "SIRT2", "assay": "enzyme activity, inhibitor, fluorescence", "IC50 [µM]": 0.11}
{"SMILES": "CC(C)(C)OC(=O)c1cccc(NC(=O)C(C(F)(F)F)C(F)(F)F)c1", "target": "Chymotrypsinogen A", "assay": "enzyme activity, inhibitor, fluorescence", "IC50 [µM]": "> 100"}
{"SMILES": "Cc1cnc(Nc2ccc3c(c2)CCN(C(=O)/C=C/C(=O)C2CCC(C)CC2)C3)nc1-c1cnn(C(C)C)c1 (stereo not drawn)", "target": "JAK2 (Homo sapiens, UniProt O60674)", "assay": "enzyme activity, inhibitor, ADP detection", "IC50 [µM]": 0.00205}
{"SMILES": "C=CC(=O)Nc1cc(-c2nn(C3CCN(CCNC(=O)[C@H](C)CCC45CC6CC(CC(C6)C4)C5)CC3)c3ncnc(N)c23)ccc1Oc1ccccc1", "target": "ERBB3 (Homo sapiens, UniProt P21860)", "assay": "cell-free assay, TR-FRET", "IC50 [µM]": 0.049}
{"SMILES": "CN(C1=C(c2ccccc2)C(=O)NC1=O)c1ccc(F)cc1", "target": "Sensor histidine kinase AirS", "assay": "autophosphorylation, inhibitor, BODIPY-FL-ATPγS in-gel fluorescence", "conditions": "lower bound of confidence interval", "IC50 [µM]": "> 1250"}
{"SMILES": "O=c1cc(-c2ccc(O)cc2)oc2cc(O)ccc12", "target": "ALOX5 (Homo sapiens, UniProt P09917)", "assay": "enzyme activity, inhibitor", "IC50 [µM]": 5.01}
{"SMILES": "OC[C@@H]1[C@@H](O)[C@H](O)[C@@H](O)CN1CCCCCOCc1ccc(-c2ccc(C(F)(F)F)cc2)cc1", "target": "GBA2", "assay": "inhibitor, 4MU-β-D-glucopyranoside", "system": "HEK293T homogenates overexpressing GBA2", "IC50 [µM]": 0.001}
{"SMILES": "CC(C)C(O)C#Cc1ccc2[nH]c3c(c2c1)-c1nc(N)ncc1CC3 (stereo not drawn)", "target": "PIP4K2C (Homo sapiens, UniProt Q8TBX8)", "assay": "target engagement in cells, BRET", "IC50 [µM]": 0.027}
{"SMILES": "OC[C@@H]1[C@@H](O)[C@H](O)[C@@H](O)CN1CCCCCOCc1ccc(-c2ccc(F)cc2)cc1", "target": "GBA2", "assay": "inhibitor, 4MU-β-D-glucopyranoside", "system": "HEK293T homogenates overexpressing GBA2", "IC50 [µM]": 0.001}
{"SMILES": "CCCCCCCCCCCCCC(=S)NCCCC[C@H](NS(C)(=O)=O)C(=O)N[C@H](C)C(=O)N[C@@H](CCCNC(=N)N)C(N)=O", "target": "SIRT2", "assay": "enzyme activity, inhibitor", "IC50 [µM]": 0.09}
{"SMILES": "O=C(Nc1ccc(F)c(Cl)c1)C(C(F)(F)F)C(F)(F)F", "target": "Chymotrypsinogen A", "assay": "enzyme activity, inhibitor, fluorescence", "IC50 [µM]": 1.2}
{"SMILES": "CCc1cccc([C@H](C)NC(=O)c2ccc3c(Cc4cccc(OC(C)(C)C(=O)O)c4)c(C)n(C)c3c2)c1", "target": "PPARA ligand-binding domain", "assay": "reporter gene, luciferase reporter", "system": "HEK293T, Gal4-PPARα LBD", "IC50 [µM]": 26.4}
{"SMILES": "O=C(Nc1ccc(Cl)cc1)Nc1ccc(C2=NNC(c3ccc(NC(=O)Nc4ccc(Cl)cc4)cc3)C2)cc1 (stereo not drawn)", "target": "AGER (Homo sapiens, UniProt Q15109)", "IC50 [µM]": 22}
{"SMILES": "CCCCc1nc2c([nH]1)[C@H](O)[C@@H](O)[C@H](O)[C@H]2O", "target": "GBA2", "system": "HEK293 lysate overexpressing enzyme", "conditions": "pH 5.8, added: 4-MU-β-D-glucopyranoside", "IC50 [µM]": "> 50"}
{"SMILES": "CC(C)(C)OC(=O)NCCOc1ccccc1NC(=O)C(C(F)(F)F)C(F)(F)F", "target": "Chymotrypsinogen A", "assay": "enzyme activity, inhibitor, fluorescence", "IC50 [µM]": 49}
{"SMILES": "OC[C@H]1[C@@H](O)[C@H](O)[C@@H](O)CN1CCCCCOCc1ccc(-c2ccccc2)c(F)c1", "target": "GBA2", "assay": "inhibitor, 4MU-β-D-glucopyranoside", "system": "HEK293T homogenates overexpressing GBA2", "IC50 [µM]": 0.0006}
{"SMILES": "Cc1c(Cc2cccc(OC(C)(C)C(=O)O)c2)c2ccc(C(=O)N[C@@H](C)c3ccc(C(F)(F)F)cc3)cc2n1C", "target": "PPARA ligand-binding domain", "assay": "reporter gene, luciferase reporter", "system": "HEK293T, Gal4-PPARα LBD", "IC50 [µM]": 18.8}
{"SMILES": "CCCCCCCCOCCCCCN1C[C@H](O)[C@@H](O)[C@H](O)[C@H]1CO", "target": "GBA2", "assay": "inhibitor, 4MU-β-D-glucopyranoside", "system": "HEK293T homogenates overexpressing GBA2", "IC50 [µM]": 0.01}
{"SMILES": "Cc1c(Cc2ccc(OC(C)(C)C(=O)O)cc2)c2ccc(C(=O)N[C@@H](C)c3cccc(C4CC4)c3)cc2n1C", "target": "PPARA ligand-binding domain", "assay": "reporter gene, luciferase reporter", "system": "HEK293T, Gal4-PPARα LBD", "IC50 [µM]": 2.19}
{"SMILES": "CCCCCOCCCCCN1C[C@H](O)[C@@H](O)[C@H](O)[C@H]1CO", "target": "GBA2", "assay": "inhibitor, 4MU-β-D-glucopyranoside", "system": "HEK293T homogenates overexpressing GBA2", "IC50 [µM]": 0.04}
{"SMILES": "COc1cc(OC)c(NC(=O)Nc2nccnn2)cc1Cl", "target": "CHEK1", "assay": "enzyme activity, inhibitor", "IC50 [µM]": "> 10"}
{"SMILES": "O=C(NCCOc1ccccc1NC(=O)C(C(F)(F)F)C(F)(F)F)c1ccccc1", "target": "Chymotrypsinogen A", "assay": "enzyme activity, inhibitor, fluorescence", "IC50 [µM]": 69}
{"SMILES": "O=C(Nc1ccc(C(=O)Nc2ccc3c(O)cc(S(=O)(=O)O)cc3c2)cc1)c1ccccc1", "target": "TREX1 (Homo sapiens, UniProt Q9NSU2)", "assay": "protein-nucleic acid interaction, inhibitor, FP", "IC50 [µM]": 3.52}
{"SMILES": "O=C(NCC1CCOCC1)c1n[nH]cc1NC(=O)c1c(F)cccc1F", "target": "DYRK1B (Homo sapiens, UniProt Q9Y463)", "assay": "target engagement in cells, BRET", "IC50 [µM]": 2.4}
{"SMILES": "CN(C)c1ccc(/N=N/c2cccc(C(=O)OCCCCN)c2)cc1", "target": "IAPP (Homo sapiens, UniProt P10997)", "assay": "ThT displacement, ThT fluorescence", "conditions": "pH 7.4, preformed target-ThT complex, added: 5 µM ThT", "IC50 [µM]": 0.53}
{"SMILES": "CN1CCC[C@@H]1C(=O)N[C@@H](Cc1ccc(-c2ccccc2)cc1)B(O)O", "target": "Proteasome subunit beta type-3/PSMB7 (Homo sapiens, UniProt P49720+Q99436)", "assay": "β2c trypsin-like activity, inhibitor", "conditions": "constitutive proteasome, added: Ac-KQL-AMC", "IC50 [µM]": "> 10"}
{"SMILES": "Cc1c(Cc2cccc(OCC(=O)O)c2)c2ccc(C(=O)N[C@@H](C)c3cccc(C(C)(C)C)c3)cc2n1C", "target": "PPARA ligand-binding domain", "assay": "reporter gene, luciferase reporter", "system": "HEK293T, Gal4-PPARα LBD", "IC50 [µM]": 41.1}
{"SMILES": "O=C(NCCCN1CCCC1=O)c1ccccc1NC(=O)C(C(F)(F)F)C(F)(F)F", "target": "Chymotrypsinogen A", "assay": "enzyme activity, inhibitor, fluorescence", "IC50 [µM]": 12}
{"SMILES": "O=C(COc1cccc2ccccc12)NCc1ccc(OP(=O)(O)O)c(OP(=O)(O)O)c1", "target": "Signal transducer and activator of transcription 5A, SH2 (Homo sapiens, UniProt P42229)", "assay": "ligand displacement, FP", "IC50 [µM]": 32.5}
{"SMILES": "CCn1nc(Cl)c2c1-c1cnc(N)c(c1)O[C@H](C)c1cc(F)ccc1-c1nn(C)cc1C2", "target": "MUSK (Homo sapiens, UniProt O15146)", "assay": "enzyme activity, inhibitor, radiometric", "IC50 [µM]": 0.09}
{"SMILES": "O=C(Nc1ccc(OC(F)(F)F)cc1)N1CCC(Cc2cccc(Oc3ccc(C(F)(F)F)cn3)c2)CC1", "target": "Arylacetamide deacetylase (Homo sapiens, UniProt P22760)", "assay": "enzyme activity, inhibitor", "IC50 [µM]": "> 10"}
{"SMILES": "O=C(NCc1ccc(N2CCOCC2)cc1)C(C(F)(F)F)C(F)(F)F", "target": "Chymotrypsinogen A", "assay": "enzyme activity, inhibitor, fluorescence", "IC50 [µM]": "> 100"}
{"SMILES": "CN(CC(O)c1ccccc1)c1ccc(Cl)cc1NC(=O)Nc1cnc(C#N)cn1 (stereo not drawn)", "target": "CHEK1", "assay": "enzyme activity, inhibitor", "IC50 [µM]": 0.423}
{"SMILES": "Cc1cc(C)c(S(=O)(=O)N(CC(=O)O)c2ccc(Nc3ccnc(N4CCCC4)n3)cc2)c(C)c1", "target": "CHEK1", "assay": "enzyme activity, inhibitor", "IC50 [µM]": "> 100"}
{"SMILES": "O=C(NC1CCCCC1)C(C(F)(F)F)C(F)(F)F", "target": "Chymotrypsinogen A", "assay": "enzyme activity, inhibitor, fluorescence", "IC50 [µM]": "> 100"}
